# Assay results from different studies.
# Numbered parts are unrelated; each lists some results of a single study.

# Series 1
# Target: Interferon regulatory factor 5, full length, phosphomimetic (IRF5, Homo sapiens, UniProt Q13568-2, residues 1-514, K96S/S451D/S453D/S456D/S462D)
# Method: protein-binding microarray
# Form: double-stranded DNA, one strand shown
# Sample: in vitro
# Concentration: 250 nM
# Notes: 60-bp whole probe
# With: salmon DNA 0.4 mg/ml
# Baseline: random background probes
# Direction: higher = stronger binding
# Shared flanks, not repeated: GCCTAGCAC … GTCTTGATTCGCTTGACGCTGCTG
Strand,log fluorescence
TTAGGTTTCCTGTCCCTTTAGTGCTAG,0.275 z-score
TACGGACTGCTTATCCTGACGTGCTAG,-0.153 z-score
GACCGTTTCCTACTGCTGACGTGCTAG,0.416 z-score
GTCGATATCGGGACTGGAGACGTGCTA,1.75 z-score
TAGCTTCCATTTTCTGAACGTGTGCTA,1.28 z-score
ATATACCTGTATATCTTCAGGTGCTAG,0.362 z-score
GTTTGTATATATTTTAACCCGTGCTAG,0.499 z-score
GACGAACTGGGGTATCGAGAAGTGCTA,0.293 z-score
TCACTCTGCTCTTTTCAAACTGTGCTA,0.754 z-score
TCATCTCCCATTATATTACTGTGCTAG,0.499 z-score
TTAGGTATCGACAGTGGGTTAGTGCTA,2.49 z-score
TTAGATTTCAGTTTCGCTTAGTGCTAG,8.94 z-score
CTAGGTTTCCTTATCCTTTAGTGCTAG,0.67 z-score
GACGGTTTCTGACTGGGGACGTGCTAG,0.672 z-score
CTAGGTTTCGGTTCCGGTTAGTGCTAG,10.2 z-score
GACTGTATCGGGTATCGGGACGTGCTA,3.55 z-score
GACGGACTGGGATTCGGGACGTGCTAG,-0.392 z-score
GACGGTCTCAGTCTCGAGACGTGCTAG,-0.0726 z-score
TTAGGTTTCTTTTCCCTTTAGTGCTAG,1.67 z-score
TTAGCTTTCGGTATCGGTTAGTGCTAG,11.7 z-score
GACTGTATCGGTATCGGGACGTGCTAG,6.46 z-score
TCAGATTTCAGTTTCTCACTGTGCTAG,2.45 z-score
TCATTATTAAAACTTCATACTGTGCTA,0.912 z-score

# Series 2
# Target: RNA binding protein fox-1 homolog 2, RRM domain, GST-SBP tag (RBFOX2, Homo sapiens, UniProt O43251-10, residues 100-194)
# Method: RNA Bind-n-Seq
# Form: RNA
# Sample: in vitro
# Concentration: 365 nM
# Notes: natural RNA segment, single round, ends assumed
# Baseline: no-protein control
# Direction: higher = stronger binding
# Shared flanks, not repeated: GGGAGUUCUACAGUCCGACGAUC … UGGAAUUCUCGGGUGCCAA
Strand,RBNS enrichment (R)
UUCCUGUACCUUUGACUAACGCUCAGCUUCCGGGCCUGCAUGCAGUAGACAGAAGAGGAAGAAAGAACAGAUGUUCACAGCUGAAUCUCAGUGAACAGAAUAGCAGUCCC,1.11
AGUCAGCCAAGGACAGUGCAGAGUCACGGGUUGGGAGGUAUGUGGGCUAGGGUAUGUGGUUUCCUCAGUCCUAAACGUCUGUGUGGCCAACUCAGCAUCUGCUUCCAGAA,1.02
UUUCUUGCCUCCUUUUUUGGCAGCCUUCAUCUUUUCCUAAAGCCCUUGAGCCUGUAGGGUUUUCAUAGUGGACAAAGGACUUAAAUGGUCUUUUAAAACUGGGAUAGUUU,0.828
CAUGAGCCAUUAUCUAGGAUACUUUCUCUCUCUUUCAUGCAGUUCAAAGCCCAGGUAUCUCUCAGAUCUGCUGCCUGAGAAAUAAGCUCCUUUAUCAGUUAGCUGUUUUA,0.409
UUAAUAAGUGAGUGCCAUAAGAAAGUCAAUAUAUAUUGUUUAAAAGAUAUUUCAGUCUAGGAAAGAUUUUCCUUCUCUUGGAAUGUGAAGAUCUGUCGAUUCAUCUCCAA,0.527
UCUCCUCAUUGUUCACAGCCUGUUGGUCUCGAACACUCAACAUAUGAUUGCUCGAUCACUUUAGAUAGUAAGUAGGCUAUUUACAUAAUGAGCUAACCUCAGAGAGAAGC,0.375
AGACCACCCUUCUUCCCAAGUGUUGAUUAUGUGACUUCUGAUACAUCCGUUCUCAAACUCCGGUGUGCCCACAUCUGCCUCCUCACCAGCCUGGUCUGUAUUUAAAGCUU,0.434
AGCAAGACAUAAACAGAUUAUAAACAUCAGAGCCAUUUGCUUCUCAGUUUACAUUUCUGAUACAUGCAGAUAGCAGAUGUCUUUAAAUGAAAUACAUGUAUAUUGUGUAU,0.373
CAUGUGUUCACACUGUGUGUAAACAUUCACUGAAGAUUUUUUCUUUGUGCAUUGCUGACUGUUCAAACAUAACAAGUAUUAUUAAAAUUAAAUAUUAACUGACCGAUCCU,0.778
CUCCAAUAGAGGCCUAUCCUGACUAGAGAAGACUGGUGAGGGUUGAUACGGGAUUUGAAUUCCCAGAUGGGCCCACAAGUGCUAUUUAUUGUAUAUUUAUUGUUUGGAUG,0.768
GGUAAGUAUAAGUAUUCAAGUAUUUGAUCAGUAAGUCACAGUUAUCUCCAGUGCAUUAAAUAACCUUCAUCAAGAAAUAGGUUAUAGGUAAAAUCUCUGAAGGAUCAUCU,0.64
AGGCAUGAUUUUUAUCAGUGAUUUAUAUUGGGAAUGAAAACCGUUCCUGCCUCCUCCCAAGGGAAGGAAGUGAGAGCAGUGGUCCUCUGGUUCAUUUAGCUGUUUGGCAG,0.486

# Series 3
# Target: Histone acetyltransferase KAT6A, both winged helices, GST fusion (KAT6A, Homo sapiens, UniProt Q92794, residues 1-181)
# Method: protein binding microarray
# Form: double-stranded DNA, one strand shown
# Sample: in vitro
# Concentration: not given
# Notes: 8-mer, flanks averaged, mean of 2 arrays, mostly near background
# Baseline: not given
# Direction: higher = stronger binding
# Target sequence (chain): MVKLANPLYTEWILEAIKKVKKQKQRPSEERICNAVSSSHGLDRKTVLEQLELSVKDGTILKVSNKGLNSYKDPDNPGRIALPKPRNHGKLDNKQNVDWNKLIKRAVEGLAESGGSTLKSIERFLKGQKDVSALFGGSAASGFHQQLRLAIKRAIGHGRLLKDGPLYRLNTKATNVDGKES
Strand,E-score
ACCTGAAC,-0.16
AGATGATA,-0.0397
CCGACACG,0.14
GGGTAACC,0.0122
CAGGTGCA,-0.261
AGAAAGAC,-0.105
ACGGCAAT,0.279
ATGCGTCC,0.192
AGCGCACT,0.106
ACCCATAA,-0.131
CCTCGTAA,-0.00389
CAACGCGG,0.257
AGGCGGAG,0.108
ACGCGTCA,0.302
AAAGACTC,-0.0363
ATTACAAA,-0.092
AGGACAAC,-0.193
CGTACGAC,0.0003
AACCATAA,-0.013
AACAATCG,-0.0368
AAAGACGA,-0.168
AGGCCACA,-0.115
CATAAAGA,-0.0644
AAATGCTT,-0.0962
AATCTCCC,-0.0959

# Series 4
# Target: Ras GTPase-activating protein-binding protein 1, C-terminal RGG region (G3BP1, Homo sapiens, UniProt Q13283)
# Sequence of UniProt Q13283 (whole entry, looked up): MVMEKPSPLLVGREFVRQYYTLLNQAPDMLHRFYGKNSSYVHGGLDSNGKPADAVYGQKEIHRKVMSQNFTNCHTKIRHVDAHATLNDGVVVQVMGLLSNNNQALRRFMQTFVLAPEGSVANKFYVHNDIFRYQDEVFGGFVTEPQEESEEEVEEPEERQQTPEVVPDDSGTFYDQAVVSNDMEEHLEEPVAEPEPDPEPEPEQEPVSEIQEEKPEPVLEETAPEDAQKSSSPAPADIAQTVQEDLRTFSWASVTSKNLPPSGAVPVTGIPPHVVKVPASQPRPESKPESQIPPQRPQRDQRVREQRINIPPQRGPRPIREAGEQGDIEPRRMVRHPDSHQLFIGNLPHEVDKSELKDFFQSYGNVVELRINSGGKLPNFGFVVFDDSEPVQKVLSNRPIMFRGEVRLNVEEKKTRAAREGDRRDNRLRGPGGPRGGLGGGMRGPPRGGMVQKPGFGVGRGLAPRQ
# Method: RNA Bind-n-Seq
# Form: RNA
# Sample: in vitro
# Concentration: 1 µM
# Notes: whole 134-nt RNA, ends assumed
# With: 150 mM KCl
# Baseline: input library
# Direction: higher = stronger binding
# Shared flanks, not repeated: GGGAGUUCUACAGUCCGACGAUC … UGGAAUUCUCGGGUGUCAAGG
Strand,log2 enrichment
GCAGGAAGUAAAAACAAAUGGAAAUGCUUCGGAUAGUGGCAGGGGUGGGGGUUGCUAAGGAAAGGGAGGGAUGGGAGUGGGUAAAGAGUU,2.18
AGUCCUGUGCUACACAUCGUAUGUACCGAAUCGGCCCCCGGGCCCCCGGCCCCCGGGGAAAGUAUUAUGUUACGCCGUUCGGAUCUGCAC,-1.45
UAACUUUAGAGGAGGAUCUGAUGGAUAUGGCAGUGGACGUGGAUUUGGGGAUUGCUAUAAUGGGUAUGGAGGAGGACCUGGAGGUGGCAA,-0.691
UCCUGUGCUACACAUCGUAUGUACCGAAUCGGGGUUUUUGGUUUUUGGGGUUUUUGGGGAAAGUAUUAUGUUACGCCGUUCGGAUCUGCA,-0.35
GUCCUGUGCUACACAUCGUAUGUACCGAAUCGGGGCCCCCGGGGCCCCCGGGCCCCCGGAAAGUAUUAUGUUACGCCGUUCGGAUCUGCA,-1.73
GUCCUGUGCUACACAUCGUAUGUACCGAAUCGGAAAAAAAGGAAAAAAAGGUUUUUGGAAAGUAUUAUGUUACGCCGUUCGGAUCUGCAC,-1.81
CAAGUCCUGUGCUACACAUCGUAUGUACCGAAUCGGGAGGGUUUUUGGGAAAGGGAAAGUAUUAUGUUACGCCGUUCGGAUCUGCACUUC,0.421
UAACUUUAGAGGAGGAUCUGAUGGAUAUGGCAGUGGACGUGGAUUUGGGGAUGGCUAUUAUGGGUAUGGAGGAGGACCUGGAGGUGGCAA,-0.89
GCAGGAAGUAAAAACAAAUGGAAAUGCUUCGGAUAGUGGCAGGGGUGGGGGUUGCUAAGGAAAGGGUGGGAUGAAAGUGGGUAAAGAGUU,1.82
UCUCUCUCUUUCCCUCUAGGGUCACAUCUCCCAGGAAGAUCUCACUUCCCCACAGAAGCUCUUGGCCUGGCCUCCUGCAGUGCCACGCUC,0.708
UCAAGUCCUGUGCUACACAUCGUAUGUACCGAAUCGGGUUGGGUUGGGGUUGGGGAAAGUAUUAUGUUACGCCGUUCGGAUCUGCACUUC,2.99
CACAGACAACACGCACCCACACAGAGACAGAGGGAAGGGGUUGGGAUGGGGACAGGGUGCACAGCAGGGCGGGGUAGGACCCCAGCCCCU,-0.202
AAGGCACGUAAGUUUAAGCUUUUUUUUUUUUUAAGUUAAUGGGAAAAAUUUGAGACGCAAUACCAAUACUUAGGAUUUUGGUCUUGGUGU,-1.4
ACCAUGCAGGUGGGCAUCUUUGGGAAGUGGGGCAAGGGGGGGAUAGGGAGGGGGGUAACACUUUGGGAACAGGUCGUCCCAGGUCGUUUC,2.26

# A few entries again (series 1):
Strand,log fluorescence
TACGGACTGCTTATCCTGACGTGCTAG,-0.153 z-score
GACCGTTTCCTACTGCTGACGTGCTAG,0.416 z-score
GTCGATATCGGGACTGGAGACGTGCTA,1.75 z-score
TAGCTTCCATTTTCTGAACGTGTGCTA,1.28 z-score
ATATACCTGTATATCTTCAGGTGCTAG,0.362 z-score
GTTTGTATATATTTTAACCCGTGCTAG,0.499 z-score
GACGAACTGGGGTATCGAGAAGTGCTA,0.293 z-score
